Values quoted from earlier work, collected from citations in different studies.
Each line is one published result; not all experiments were run side by side. Numbers after ± are the reported error.
ACHE: Acetylcholinesterase (ACHE, Homo sapiens, UniProt P22303)
Chain of UniProt P22303 (whole entry, looked up): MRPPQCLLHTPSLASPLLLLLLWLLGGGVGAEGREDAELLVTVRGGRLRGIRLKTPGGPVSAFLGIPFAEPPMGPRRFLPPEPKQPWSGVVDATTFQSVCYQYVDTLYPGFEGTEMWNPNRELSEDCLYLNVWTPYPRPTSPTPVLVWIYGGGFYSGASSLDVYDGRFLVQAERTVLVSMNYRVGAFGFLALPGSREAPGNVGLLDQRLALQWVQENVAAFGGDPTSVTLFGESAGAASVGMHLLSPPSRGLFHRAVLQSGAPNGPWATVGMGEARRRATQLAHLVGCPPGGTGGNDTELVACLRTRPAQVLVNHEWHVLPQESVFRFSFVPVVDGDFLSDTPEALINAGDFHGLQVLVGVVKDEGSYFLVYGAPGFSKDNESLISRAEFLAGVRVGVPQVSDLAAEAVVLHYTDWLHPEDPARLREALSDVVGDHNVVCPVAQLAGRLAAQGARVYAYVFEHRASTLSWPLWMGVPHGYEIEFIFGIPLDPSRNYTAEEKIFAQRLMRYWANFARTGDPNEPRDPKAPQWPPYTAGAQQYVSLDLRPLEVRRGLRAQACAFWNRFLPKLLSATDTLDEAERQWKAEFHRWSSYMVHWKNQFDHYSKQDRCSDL
BCHE: Cholinesterase (BCHE, Equus caballus, UniProt P81908)
Chain of UniProt P81908 (whole entry, looked up): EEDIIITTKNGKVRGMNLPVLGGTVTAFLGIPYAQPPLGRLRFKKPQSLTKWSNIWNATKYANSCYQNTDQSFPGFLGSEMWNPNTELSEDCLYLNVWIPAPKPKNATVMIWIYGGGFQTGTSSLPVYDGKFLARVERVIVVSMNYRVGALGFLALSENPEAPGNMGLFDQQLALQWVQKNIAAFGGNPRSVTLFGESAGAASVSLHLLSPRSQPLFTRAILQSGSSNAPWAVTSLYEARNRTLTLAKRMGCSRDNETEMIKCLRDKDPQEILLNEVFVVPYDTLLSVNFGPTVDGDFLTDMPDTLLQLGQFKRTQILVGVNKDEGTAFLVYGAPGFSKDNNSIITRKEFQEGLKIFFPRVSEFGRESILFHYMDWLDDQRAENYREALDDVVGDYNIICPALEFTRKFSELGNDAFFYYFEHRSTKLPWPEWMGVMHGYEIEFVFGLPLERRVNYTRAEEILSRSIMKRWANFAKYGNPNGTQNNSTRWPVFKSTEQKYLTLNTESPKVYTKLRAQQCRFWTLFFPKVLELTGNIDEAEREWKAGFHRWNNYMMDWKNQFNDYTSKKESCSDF
TACR1: Substance-P receptor (TACR1, Homo sapiens, UniProt P25103)
Chain of UniProt P25103 (whole entry, looked up): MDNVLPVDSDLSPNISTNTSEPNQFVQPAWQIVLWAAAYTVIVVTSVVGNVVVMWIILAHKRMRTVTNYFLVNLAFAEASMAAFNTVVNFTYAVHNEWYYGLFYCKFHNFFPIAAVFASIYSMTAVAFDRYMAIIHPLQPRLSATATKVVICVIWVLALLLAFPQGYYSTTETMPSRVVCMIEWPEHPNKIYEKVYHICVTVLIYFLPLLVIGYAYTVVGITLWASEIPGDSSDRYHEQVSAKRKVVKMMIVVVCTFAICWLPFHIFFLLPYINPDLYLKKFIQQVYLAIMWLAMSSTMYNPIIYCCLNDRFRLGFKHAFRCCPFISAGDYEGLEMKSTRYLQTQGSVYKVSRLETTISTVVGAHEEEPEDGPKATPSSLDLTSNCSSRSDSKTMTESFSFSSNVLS
Chain of UniProt Q5BJF2 (whole entry, looked up): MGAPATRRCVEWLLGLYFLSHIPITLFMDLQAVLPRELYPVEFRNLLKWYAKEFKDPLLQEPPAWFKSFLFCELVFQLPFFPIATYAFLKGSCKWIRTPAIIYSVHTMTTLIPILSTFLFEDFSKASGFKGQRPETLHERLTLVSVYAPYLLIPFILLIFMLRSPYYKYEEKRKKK

SMILES | target | observed | action | matrix | notes | Ki [nM]
CN(C)S(=O)(=O)NC1CCc2ccc(O)cc2C1 (centres unmarked) | ACHE | – | – | – | – | 0.72
Cc1c(C(=O)NCCO)nn(-c2ccc(Cl)cc2Cl)c1-c1ccc(Cl)cc1 | CB1 receptor | binding | – | – | – | 385
COc1ccc2c(c1O)-c1c(O)c(OC)cc3c1[C@H](C2)[N+](C)(C)CC3 | BCHE | – | – | – | – | 2.47
CCCCCCCCCCCCCC(=O)O[C@@H]1[C@@H](C)[C@@]2(O)[C@@H](C=C(CO)C[C@]3(O)C(=O)C(C)=C[C@@H]23)[C@@H]2C(C)(C)[C@]12OC(C)=O | phorbol ester binding site | binding | – | – | historical reference value | 0.59
CCS(=O)(=O)n1c2c(c3cc(C(=O)N4CCCCC4)ccc31)CN(C1CCCC1)C2 | CB2 receptor | binding | – | – | – | 17.5
CC(C)(C)c1cccc(C(=O)C(F)(F)F)c1 | ACHE | – | – | – | – | 0.0037
Cc1cc(C)cc(-c2ccc(C(C)(C)CCCCCO)cc2O)c1 | CB1 receptor | binding | – | – | – | 39
COc1cc(NC(=O)Nc2cccc(CNC(=O)O[C@H]3CCOC3)c2)ccc1-c1cnco1 | IMPDH2 | – | inhibitor | – | – | 10
CCCNC(=O)c1nn(-c2ccc(Cl)cc2Cl)c(-c2ccc(Cl)cc2)c1C | CB2 receptor | binding | – | – | – | 2960
COc1ccc2c(c1)c(CCN1CCOCC1)c(C)n2C(=O)c1cccc(Cl)c1Cl | cannabinoid receptor 1, human | binding | – | – | – | 4770
Nc1ccccc1[C@H](O)C[C@H](N)C(=O)O | kynureninase (Pseudomonas fluorescens) | – | inhibitor | – | – | 1500
Ic1ccccc1CN[C@@H]1C2CCN(CC2)[C@@H]1C(c1ccccc1)c1ccccc1 (racemic) | TACR1 | binding | – | – | – | 2.6
CCCCCc1cc(O)cc(O)c1 | BCHE | – | – | – | – | 30.4
Cc1cccc(C(=O)C(F)(F)F)c1 | ACHE | – | – | – | – | 2.4
Cc1ccc(C(C)C)cc1O | acetylcholinesterase | – | inhibitor | – | – | 22.9
CN(C)CCc1c[nH]cn1 | histamine H4 receptor | – | – | – | – | ~1200
Cc1c(C(=O)NN2CCCCC2)nc(-c2ccc(Cl)cc2Cl)n1-c1ccc(C(F)(F)F)cc1 | CB2 receptor | binding | – | – | – | 634
CC(=O)c1c(O)c(C)c(O)c2c1OC1=CC(=O)C(C(C)=O)C(=O)C12C (centres unmarked) | glutathione reductase | – | inhibitor | – | – | 210000 ± 100000
C=CCn1c2c(c3cc(C(=O)N4CCC(C)CC4)ccc31)CN(C1CCCC1)C2 | CB2 receptor | binding | – | – | – | 23.3
N#CC(=Cc1ccc(O)cc1)C(=O)O | mitochondrial monocarboxylate transporter (rat) | monocarboxylate transport | inhibitor | rat liver mitochondria | – | 6000
Ic1ccccc1CN[C@@H]1C2CCN(CC2)[C@@H]1C(c1ccccc1)c1ccccc1 (racemic) | TACR1 | – | – | – | – | 2.6
CCN(CC)S(=O)(=O)N/C(=N/C)N1CC(c2cccnc2)C(c2ccc(Cl)cc2)=N1 (centres unmarked) | CB1 receptor | binding | – | – | – | 141
O=C(/C=C/c1ccc(O)c(O)c1)O[C@H](Cc1ccc(O)c(O)c1)C(=O)O | BCHE | – | – | – | – | 0.121
CCCCN1CCC(COC(=O)c2ccc(N)c(OC)c2)CC1 [carbon-11 labelled] | TMEM97 (Homo sapiens, UniProt Q5BJF2) | – | – | – | – | 148
O=c1c2nn(-c3ccccc3Cl)c(-c3ccc(Cl)cc3)c2ncn1C1CCCCC1 | CB1 receptor | binding | – | – | – | 20
CCC1=CC2Cc3nc4cc(Cl)ccc4c(N)c3[C@@H](C1)C2 | ACHE | – | – | – | – | 0.026

Excerpt of the above:
SMILES | target | observed | action | matrix | notes | Ki [nM]
Cc1c(C(=O)NN2CCCCC2)nc(-c2ccc(Cl)cc2Cl)n1-c1ccc(C(F)(F)F)cc1 | CB2 receptor | binding | – | – | – | 634
Nc1ccccc1[C@H](O)C[C@H](N)C(=O)O | kynureninase (Pseudomonas fluorescens) | – | inhibitor | – | – | 1500
